Measurements from different studies.
A part holds a random share of what one study measured.

Series 1
Target: RING finger protein unkempt homolog, zinc fingers 1-6, SBP tag (UNK, Homo sapiens, UniProt Q9C0B0, residues 30-357)
UniProt Q9C0B0, sequence (30-357, looked up): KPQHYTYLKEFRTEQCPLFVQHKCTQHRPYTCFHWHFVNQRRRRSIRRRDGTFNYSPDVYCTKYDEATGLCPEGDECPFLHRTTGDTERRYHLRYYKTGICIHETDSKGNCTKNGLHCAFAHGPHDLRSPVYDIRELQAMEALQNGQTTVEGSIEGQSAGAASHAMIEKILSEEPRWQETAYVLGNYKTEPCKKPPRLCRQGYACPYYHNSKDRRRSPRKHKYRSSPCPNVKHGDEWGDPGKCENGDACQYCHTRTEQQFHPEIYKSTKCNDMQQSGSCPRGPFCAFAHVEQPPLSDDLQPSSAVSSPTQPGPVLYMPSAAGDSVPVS
Method: RNA Bind-n-Seq
Molecule type: RNA
Matrix: in vitro
Concentration: 100 nM
Notes: RNA with constant flanks, vertebrate orthologous sites, ends assumed
Baseline: input RNA pool
Reading: higher = stronger binding
Constant ends, left off below: GGGAGUUCUACAGUCCGACGAUC … CAACAGAGGAUUGAGCAUCA
| Sequence | bound/input enrichment |
| --- | --- |
| UAUUUAAAGUGUAAGUAGUUAUAUUUAAUGACCUCAUCCUGAGUUUCUUGUUCAUUAAAGUAGCUUUCAUUUCUACUAAUAAGAAUAAACAGAAGGUUUGUGUGAGCAGACACUCAGAAC | 0.579 ratio |
| UGAAAGUUUUAACCAAGAAUCUGAAGGUAGACAUACAGGACCGUGGUUAUCAUCCUCACUUAGAAAUAGAUGCACACCUUUGUUCUCUAGAAGGAGGAGAGAAGGUAGGGAUGAGUCUUC | 1.02 ratio |
| UAUAAGAACUCUUGCAGUCUUAGAUGUUAUAAAAAUAUGUAUACCAAUUGUAAGAGUUGUUAGCACAGAUUUUUUUCUUUUCUUUUUUUUAAGCACUUGUUUUGGGUACAAGGCAUUUCU | 0.512 ratio |
| GUAAUGUGUUCUUAUUUAUUGAAAAUAGUUUGUGCUAAGGAUUGUGUUAGAUUUACAAAUUAGUGAAUUGAUUCCUCUUUGUUGUGUUGCUUUUAUUGUUGAAAAUAAAUAGAACUUUGA | 1.27 ratio |
| UAUCUUUAGGAUGAAGCUCUUACAUCAGGUAUCACGAGUCUGGAGAACAGAUGGGUUGACUAGUUGUAUUUACAAAUUACUCUCUGUGGAUUAUAAUCCUUUGUAUACCAACAUCACAGU | 0.321 ratio |
| UGUGUUGGUGCAGAGUGCUCUGUACCAGUGCUCAUCAUCCCUUCUUCAUACCAACAGCCCUAGUUACAGGAAUUAAUAUUUUUUAAAAUUUACAUUGCUGUAUAUUCAAAGAUUUGUUUU | 0.312 ratio |
| UAAGUAAAAUAUUGGAUGCAGUAUAUAGAUGAUCCAAGGCAGUGACUUCAGAUUUAGAUGUUAGUUUUAAGAUUAUUUACAUUUAUUUAAACUUUUAGAUUGGACUAUUUACUAUUGCUC | 1.35 ratio |
| GACCUCCUGAACUUCUAGCUUUCAAGCUGUGGCUGUUUUAGAUACUGAUUUUAUUUUCUUUACAAUUUUCCCCUGUUUCCUGCCUUCUCUUCCCUGUUCCCAAGGUUUGACUCAAUGGAU | 2.69 ratio |
| AGCACAGCAAGGAUUCAGAACUGGUUUUACAAAUGUCCCAAGCAGAUAUGGAACAAACACUCGUGGUCAACCUCGACCAUAAUAAACACCAUUAUUUAUUGUACUUAAGGGUAUUGACUU | 0.603 ratio |
| GCAUUUCAAGCUCACACCUGUAUCAACAUGGAAGUAGACCAGCUCUGCUGAUUUGAAAUUUAGACUUUUUAAUUAUGUACUGGGGACAGGUUUUUGUCGCUUUACAUUGCUUCCUAGUUU | 3.19 ratio |
| CAGUUUGUAUGUACAUUAUUCAUAUUCCUCUCUGUUGUGUUUCGGGGGGAAAAGACAUUUUAGCCUUUUUUAAAAGUUACUGAUUUAAUUUCAUGUUAUUUGGUUGCAUGAAGUUGCCCU | 1.41 ratio |

Series 2
Target: Sal-like protein 4, full length isoform B (SALL4, Homo sapiens, UniProt Q9UJQ4-2, residues 1-616)
Method: universal PBM
Molecule type: double-stranded DNA, one strand shown
Matrix: in vitro
Concentration: not given
Notes: 8-mer, flanks averaged, mean of replicates
Reading: higher = stronger binding
Target sequence (chain): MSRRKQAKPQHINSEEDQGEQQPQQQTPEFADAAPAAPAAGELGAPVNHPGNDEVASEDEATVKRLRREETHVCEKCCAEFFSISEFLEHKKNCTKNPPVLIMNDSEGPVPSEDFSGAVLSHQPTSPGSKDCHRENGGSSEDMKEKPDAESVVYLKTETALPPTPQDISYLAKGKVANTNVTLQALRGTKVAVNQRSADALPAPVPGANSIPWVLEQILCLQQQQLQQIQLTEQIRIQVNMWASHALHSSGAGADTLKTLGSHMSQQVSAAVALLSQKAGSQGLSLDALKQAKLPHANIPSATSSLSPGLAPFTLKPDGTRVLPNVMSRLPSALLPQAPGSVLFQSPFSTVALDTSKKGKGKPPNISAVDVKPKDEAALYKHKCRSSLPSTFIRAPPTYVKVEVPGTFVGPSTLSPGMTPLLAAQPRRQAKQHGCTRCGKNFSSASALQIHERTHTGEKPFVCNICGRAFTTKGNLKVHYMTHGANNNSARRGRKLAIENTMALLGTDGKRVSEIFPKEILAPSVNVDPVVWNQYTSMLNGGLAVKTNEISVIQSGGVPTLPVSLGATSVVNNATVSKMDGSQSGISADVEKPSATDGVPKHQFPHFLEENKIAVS
| Sequence | E-score |
| --- | --- |
| CCTGAGCG | -0.239 |
| ACCACGAA | -0.0998 |
| GCGCTTCA | -0.0963 |
| CTTCACAA | 0.0449 |
| GGCAACTA | 0.0206 |
| ATGCTACA | 0.136 |
| AAACAGAA | 0.18 |
| ACCAGGGT | -0.268 |
| GTCCTCGA | -0.199 |
| GGACAATA | 0.166 |
| GCGGGGGA | -0.225 |
| CATCTAGA | 0.0591 |
| CCAGAGGA | -0.191 |
| AGCAAGAC | 0.0484 |
| CCAGACGA | -0.223 |
| CATGTAAC | 0.239 |
| CAGCTTAA | -0.0187 |
| AATTCGCC | -0.0146 |
| GATCTTCA | 0.0661 |
| CCGAAGCC | -0.335 |
| CACTCGAG | -0.119 |
| TCAGGGCA | -0.153 |
| CAGTTGTA | 0.0385 |
| GCGCCGAA | -0.187 |

Series 3
Target: Ras GTPase-activating protein-binding protein 1, RRM domain (G3BP1, Homo sapiens, UniProt Q13283)
UniProt Q13283, sequence (whole entry, looked up): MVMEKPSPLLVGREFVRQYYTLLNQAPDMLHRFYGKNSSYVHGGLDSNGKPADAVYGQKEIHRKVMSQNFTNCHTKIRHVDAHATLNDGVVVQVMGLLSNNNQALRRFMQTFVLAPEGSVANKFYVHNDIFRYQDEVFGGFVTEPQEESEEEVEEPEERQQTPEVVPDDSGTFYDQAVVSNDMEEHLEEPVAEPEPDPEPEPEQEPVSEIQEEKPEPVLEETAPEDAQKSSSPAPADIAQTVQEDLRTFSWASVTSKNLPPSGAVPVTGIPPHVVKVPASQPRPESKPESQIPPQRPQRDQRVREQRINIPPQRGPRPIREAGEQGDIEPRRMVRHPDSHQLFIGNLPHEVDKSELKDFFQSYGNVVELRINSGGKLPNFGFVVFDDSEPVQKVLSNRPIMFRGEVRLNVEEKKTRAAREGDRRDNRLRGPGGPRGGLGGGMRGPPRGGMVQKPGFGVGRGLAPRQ
Method: RNA Bind-n-Seq
Molecule type: RNA
Matrix: in vitro
Concentration: 1 µM
Notes: whole 134-nt RNA, ends assumed
Added: 150 mM KCl
Baseline: input library
Reading: higher = stronger binding
Constant ends, left off below: GGGAGUUCUACAGUCCGACGAUC … UGGAAUUCUCGGGUGUCAAGG
| Sequence | log2 enrichment |
| --- | --- |
| CUGUGCUACACAUCGUAUGUACCGAAUCGGGGAAAAAAAGGGGUUUUUUUGGGGUUUGGGGAAAGUAUUAUGUUACGCCGUUCGGAUCUG | 0.695 |
| GUCCUGUGCUACACAUCGUAUGUACCGAAUCGGGAAAAAGGAAAAAGGGGAAAAAGGGGAAAGUAUUAUGUUACGCCGUUCGGAUCUGCA | 0.181 |
| CCUGUGCUACACAUCGUAUGUACCGAAUCGGGUUUUUUUGGGGUUUUUUUGGUUUUUUUGGAAAGUAUUAUGUUACGCCGUUCGGAUCUG | -0.147 |
| UAACUUUAGAGGAGGAUCUGAUGGAUAUGGCAGUGGACGUGGAUUUGGGGAUGGCUAUAAUGGGUAUGGAGGAGGACCUGGAGGUGGCAU | -0.331 |
| CACAGACAACACGCACCCACACAGACACAGAGGGAAGGGGUUGGGAUGGGGACAGAGUGCACAGCAGGGCGGGGUAGGACCCCAGCCCCU | 0.18 |
| CCUCAAGUCCUGUGCUACACAUCGUAUGUACCGAAUCGGGGCGGCGGGCGGGAAAGUAUUAUGUUACGCCGUUCGGAUCUGCACUUCCAG | -0.0511 |
| UAACUUUAGAGGAGGAUCUCAUGGAUAUGGCAGUGGACGUGGAUUUGGGGAUGGCUAUAAUGGGUAUGGAGGAGGACCUGGAGGUGGCAA | -0.828 |
| UCCUGUGCUACACAUCGUAUGUACCGAAUCGGGGUGGGGAAAAAAAGGGGAAAAAGGGGAAAGUAUUAUGUUACGCCGUUCGGAUCUGCA | 0.801 |
| GCAGGAAGUAAAAACAAAUGGAAAUGCUUCGGAUAGUGGCAGAAAUGGGGGUUGCUAAGGAAAGGGUGGGAUGGGAGUGGGUAAAGAGUU | 0.765 |
| CCUGUGCUACACAUCGUAUGUACCGAAUCGGGAAAAAAGGGGAAAAAAGGGGAAAAAAGGGAAAGUAUUAUGUUACGCCGUUCGGAUCUG | 0.0401 |
| AAGUCCUGUGCUACACAUCGUAUGUACCGAAUCGGCCCCGGGCCCCGGCCCCGGGGAAAGUAUUAUGUUACGCCGUUCGGAUCUGCACUU | -0.674 |
| UCAAGUCCUGUGCUACACAUCGUAUGUACCGAAUCGGUUUGGAAAGGUUUUUGGAAAGUAUUAUGUUACGCCGUUCGGAUCUGCACUUCC | -0.188 |
| UCCUGUGCUACACAUCGUAUGUACCGAAUCAAAUUUUUUUAAAUUUUUAAAUUUUUAAAAAAGUAUUAUGUUACGCCGUUCGGAUCUGCA | -0.235 |
| UCAAGUCCUGUGCUACACAUCGUAUGUACCGAAUCGGUUUGGUUUGGGUUUGGGAAAGUAUUAUGUUACGCCGUUCGGAUCUGCACUUCC | -0.257 |

Series 4
Target: RNA binding protein fox-1 homolog 2, RRM domain, GST-SBP tag (RBFOX2, Homo sapiens, UniProt O43251-10, residues 100-194)
Method: RNA Bind-n-Seq
Molecule type: RNA
Matrix: in vitro
Concentration: 365 nM
Notes: natural RNA segment, single round, ends assumed
Baseline: no-protein control
Reading: higher = stronger binding
Constant ends, left off below: GGGAGUUCUACAGUCCGACGAUC … UGGAAUUCUCGGGUGCCAA
Construct (chain): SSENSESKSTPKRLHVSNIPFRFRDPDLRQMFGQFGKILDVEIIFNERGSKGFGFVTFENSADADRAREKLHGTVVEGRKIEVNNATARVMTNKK
| Sequence | RBNS enrichment (R) |
| --- | --- |
| AAAGGCCGACUGUACCCAUGAGAGGUGCCUCACAGCAGGAGACUAAGAUCUGUUGAUGCUCUGAGGAAAACUCCCCCAUGACCAGGGUGGAUUCUGGCUUCAAGGCUGGA | 0.252 |
| GGCUCCGAGGCUGGGGGAUCUGCUUGGAGUUUUCUGCCCCCCACCCCAAACUUCUGUCGAGGAGCAAGGCUUGCCAGCAAGUCAGAAGGAUUUGAACCGAGCAGCCAAUC | 0.474 |
| GAGUAACAAACACUGUUCUCACUGAGUCUUCUUUCCCCAUUCUGUAGUCCUGUGGAGGAGGAGGGUCCUCCCAGGAGGACCUGUGUGUUCUUUCAAAGCCUUAGAGUGGC | 0.203 |
| AUUGACUUUUAUUCCAUUUUUAUAUGAAGGUGUUAGAUAUAGCCAUCAAUUUAUUUUUCUACAUUCCCUCUACGCUUAUGUAAUUUUCUAUUUUUAAAUCUUCUCUUAAA | 0.856 |
| UCUGCCCAGGAGAAAAGGAACUAUACAGCAUAGUGGAGUUUUGUGUACUAAAAUUGCUAUCUACUGGUCCUUUGGAAUUGAAGUAGUAGAAACCUAAAGGCUUGGCGUCA | 0.438 |
| UUUAGGAAUUGGGUCUUUUGUCCAAGUGACUUCGGUCUUAAGAAGAAAUAGUGUUGGGAGGGAACCUGUCUAGUAACAGAGCUAGCAAAUGUCCAGGCUGGUGAAGAUCC | 0.535 |
| GAAUGCUGCUGUGUCUGUCAUGUGUGCACUCCUCGCCCCUCCUCGCUUUGCUAACCAAAGAACAUAUAUUUUACUGUCCAUUUCCUCAGCUCCCCAGUCCGAGUAGCAUU | 8.22 |
| GCCGCCCUCUGCUCUCAGUGGUCUCUGCUACUGAUGAAUCCAGUGGGUUUCCUUUCAUAUUCUCCUGGCCAACUCCAGAGUGGCCUCCUAACCCAGCAGGCCCACCCCUC | 0.237 |
| UUAUGAAUAGAGACAUAUUAAAAUAAUGUUUACAUCUUAGAAAAAACAUAGAUAGUGCUAGUAAUAUUACUUAUAACUGUAAUAUAUAGAUUCAGAAAUACAUUUUCAUU | 0.912 |
| GCAUGGUUGUUGCAUAUAGUAAAACUGAGAGUAAUUCACCUGUGAAUCUGCAUAUUAAUUACCUGAUGAUUAACUUAGAAAAGAGAUGGGAACUUAUUAUACAUGGACAU | 6.39 |
| UUGCAGUUUACCAAUUCAAUAUAGCCCUGCAUUUAAAGUUCCUUUUUAAGAUUUGUGGAUUUUAUUUUUAUUAAGAACAUAGAUAUAUAAAGUACUGUAGUUUACAGGUA | 0.935 |
| AAAACGUUUGAUUAUUUUCUCAGUGUAUUUUUGUAAAAAAUAUAUAAAGGGGGUGUUAAUCGGUGUAAAUCGCUGUUUGGAUUUCCUGAUUUUAUAACAGGGCGGCUGGU | 0.432 |

A few entries again (series 3):
| Sequence | log2 enrichment |
| --- | --- |
| CUGUGCUACACAUCGUAUGUACCGAAUCGGGGAAAAAAAGGGGUUUUUUUGGGGUUUGGGGAAAGUAUUAUGUUACGCCGUUCGGAUCUG | 0.695 |
| GCAGGAAGUAAAAACAAAUGGAAAUGCUUCGGAUAGUGGCAGAAAUGGGGGUUGCUAAGGAAAGGGUGGGAUGGGAGUGGGUAAAGAGUU | 0.765 |
| UCAAGUCCUGUGCUACACAUCGUAUGUACCGAAUCGGUUUGGUUUGGGUUUGGGAAAGUAUUAUGUUACGCCGUUCGGAUCUGCACUUCC | -0.257 |
| AAGUCCUGUGCUACACAUCGUAUGUACCGAAUCGGCCCCGGGCCCCGGCCCCGGGGAAAGUAUUAUGUUACGCCGUUCGGAUCUGCACUU | -0.674 |
| CCUCAAGUCCUGUGCUACACAUCGUAUGUACCGAAUCGGGGCGGCGGGCGGGAAAGUAUUAUGUUACGCCGUUCGGAUCUGCACUUCCAG | -0.0511 |
| CCUGUGCUACACAUCGUAUGUACCGAAUCGGGAAAAAAGGGGAAAAAAGGGGAAAAAAGGGAAAGUAUUAUGUUACGCCGUUCGGAUCUG | 0.0401 |
